Measured values gathered from unrelated publications.
Parts stem from different laboratories: compare values within a part only.

Block 1 — technique: RNA Bind-n-Seq; molecule type: RNA; matrix: in vitro; tested at: 365 nM; reference: no-protein control; direction: higher = stronger binding
Target: RNA binding protein fox-1 homolog 2, RRM domain, GST-SBP tag (RBFOX2, Homo sapiens, UniProt O43251-10, residues 100-194)
Notes: natural RNA segment, single round, ends assumed
Residues (chain): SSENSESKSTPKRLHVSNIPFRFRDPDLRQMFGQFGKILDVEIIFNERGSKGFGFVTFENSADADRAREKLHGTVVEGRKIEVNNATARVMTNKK
Strand | RBNS enrichment (R)
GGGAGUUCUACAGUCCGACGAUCCAAAGAUCUGGAAUGGGGGCCACCUUUAUAUUUUAAUACUCAAGUCCUGUGCUCCUUUUGGCCACUUUAAAAAGUCUUCCCUCACCUUGGAUAAAUAGGAUUCAGAAAGCUGGAAUUCUCGGGUGCCAA | 0.379
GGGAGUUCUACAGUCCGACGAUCAGGACCCCCGGGGCUGCAGCCUCCUCUUUCUGUCUCUGAUCAGAGCCGACACCAGACGUGAUUAGCAGGCGCAGCAAAUUCAAUUUGUUAAAUGAAAUUGUAUUUUGCCCUGGAAUUCUCGGGUGCCAA | 0.403
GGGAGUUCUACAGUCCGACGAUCCCUGACGGUAAACUCUUCCCUCUUCGGGGGCAGACCCCAUACCCCGGGGCGGGUGCUUAGGCUUUCCUGCCCUGGUGGCCACACCAGCUGCUGUAUUUAUGUGCUUCAUAUGGAAUUCUCGGGUGCCAA | 0.239
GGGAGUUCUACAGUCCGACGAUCUUAGAAACUGCUCAGCCACAGGGUCCCAGUGUCUGAGUCUGGAAGAGUCUUUAGAGAUUUGUUCACUCUCUGAGGGAUCCUCCUGGCUCUGCUUACAUACUUCCAGGGACUGGAAUUCUCGGGUGCCAA | 0.308
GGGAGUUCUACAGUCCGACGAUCGGUGGGGUUAUUGUUAGUAGGCGCAGCCUCAUUCCCACCACGAUCUGUUCCGCGUGGUUCCCGCCAAACCUCCCUCGGUCGCCGUGUUCUCCGCAAGCCUCCUGCAGCGCUGGAAUUCUCGGGUGCCAA | 0.315
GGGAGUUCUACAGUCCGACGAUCUGCAUAUUUAAUCUGCAACAAAAAUGUUAAGCCAUAACAGCCUUUUUAUAUUUUAGUUUGUCACCUUUGCAUUGCAGAAUAAAUACUGAAUAACCAUUUUUAUAAGCAGUUGGAAUUCUCGGGUGCCAA | 0.508
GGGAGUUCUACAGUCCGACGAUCAACUGUCACCACUGCUAAGGGACUCUAUCCAUUGAGCACAUUUUCCUAAGGCCCUGCUGUCUGCCGAGGAGCGCCAAGAAGAUGUCACUUGUUUACACACGAACUGCCACUGGAAUUCUCGGGUGCCAA | 0.806
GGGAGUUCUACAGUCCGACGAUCUGUAUCGUCUCCUUCUCCCUAAAGUGUACUUAAUCUUUGCUUUCUUUGCACAAUGUCUUUGGUUGCAAGUCAUAAGCCUGAGGCAAAUAAAAUUCCAGUAAUUUCGAAGAUGGAAUUCUCGGGUGCCAA | 1.45
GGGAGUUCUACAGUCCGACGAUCCAUCUCUGACUGAGGUGUUUUUGUUUGGUUUUGUUUUUUAAAAUCAUGUAUUUGCUACAAAGUAUUGUACUUGUCUCAAUGGGAAUGGUGUAAAAAACAAAAGGCCUUAUUGGAAUUCUCGGGUGCCAA | 0.375
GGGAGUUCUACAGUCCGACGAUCCUGCCGUAGCUUCAGCCAGGCAAGAAAGCUUCCUUCAACCUGCAUAGCCGGUGGGUGAGGAGAUUCCCACCUUCCAUAGCCUCCAAACAUGUUCCCAAGGCCCCACUUUCUGGAAUUCUCGGGUGCCAA | 0.633
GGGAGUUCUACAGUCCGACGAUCCAGGCAGACAGCCUCAGCAACGCCCCUGGUGGACAGGAUGGUUCGGCAAAGCAGCCUGAGUUAUUUUUGUGGACGGAAUCGGAACACGCUGGCUCCAUAUCGUGAAAUUUUGGAAUUCUCGGGUGCCAA | 0.395
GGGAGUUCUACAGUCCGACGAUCCAUGGACCCCCUGAGACUAUCAUUAUUACCUCCUAGGGCCAGGAAGCCAGGUAGGUAGUCUGAGUCAGGAUUGGAUCAACAGCCUCCUCUCUUGGGGACUCUCAAGAGCCUGGAAUUCUCGGGUGCCAA | 0.376

Block 2 — technique: RNAcompete; molecule type: RNA; matrix: in vitro; tested at: 20 nM; notes: 7-mer, probes averaged, single round; reference: mean of 7-mers; direction: higher = stronger binding
Target: PABPC1L2, full length, GST fusion (mouse, UniProt A0ABA7IW68)
Target sequence (chain): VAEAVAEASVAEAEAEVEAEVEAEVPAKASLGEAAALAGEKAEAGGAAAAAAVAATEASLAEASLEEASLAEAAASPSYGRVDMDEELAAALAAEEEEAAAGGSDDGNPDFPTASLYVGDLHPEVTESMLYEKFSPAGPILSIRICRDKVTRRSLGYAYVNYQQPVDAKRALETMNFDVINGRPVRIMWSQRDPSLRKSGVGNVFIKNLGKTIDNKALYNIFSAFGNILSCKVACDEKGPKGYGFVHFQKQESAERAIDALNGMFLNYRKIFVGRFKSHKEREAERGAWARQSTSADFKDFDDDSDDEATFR
Strand | 7-mer Z-score
CCAGGGU | -0.184
GAAUAUA | 0.0533
GUUCCUG | -0.233
CGUACGG | 0.00798
UUGGGAA | 0.229
GUAGAAU | -0.0156
CAAUAUC | -0.0246
CCUCCCU | -0.503
AAGGGCC | 0.276
GGGGUAA | 0.447
CGCCAAU | -0.32
AAAAGCU | 3.15
CCCAUCC | -0.389
AUCUUAG | -0.231
UCGCGUC | -0.354
CUGACCG | -0.162
ACACCGG | 0.0569
CUAUACU | -0.34
GCGCAAC | -0.0319
GAUUGCG | -0.0881
GGUUCCG | -0.0917
UAGCACA | -0.146

Block 3 — technique: RNA Bind-n-Seq; molecule type: RNA; matrix: in vitro; tested at: 200 nM; notes: whole 134-nt RNA, ends assumed; together with: 150 mM KCl; reference: input library; direction: higher = stronger binding
Target: Fragile X messenger ribonucleoprotein 1, C-terminal low-complexity region (Fmr1, Mus musculus, UniProt P35922)
Strand | log2 enrichment
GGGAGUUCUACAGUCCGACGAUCUUCCUCAAGUCCUGUGCUACACAUCGUAUGUACCGAAUCGGAGGAGGUGGAAAGUAUUAUGUUACGCCGUUCGGAUCUGCACUUCCAGCAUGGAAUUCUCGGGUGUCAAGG | -0.912
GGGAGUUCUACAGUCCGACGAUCUCAAGUCCUGUGCUACACAUCGUAUGUACCGAAUCGGAAAAAGGAGGAAAAAGGAAAGUAUUAUGUUACGCCGUUCGGAUCUGCACUUCCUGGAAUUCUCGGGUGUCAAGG | -0.525
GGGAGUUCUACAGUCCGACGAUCUGGGAGGUGGAUUUUGUUUAUCUUUUUAGCUCAUUUCCAGGGGUGGGAAUUUUUUUUUAAUAUGUGUCAUGAAUAAAGUUGUUUUUGAAAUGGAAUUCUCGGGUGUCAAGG | 0.289
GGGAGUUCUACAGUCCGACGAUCUCAAGUCCUGUGCUACACAUCGUAUGUACCGAAUCGGGAGGGAGGGAAAAAGGGAAAGUAUUAUGUUACGCCGUUCGGAUCUGCACUUCCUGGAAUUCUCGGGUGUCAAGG | 0.927
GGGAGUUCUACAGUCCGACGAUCCCAACUCCUAUAAUUCCCUAUCUUUUAGUUUUAGUUGCAGAAACAUUUUGUGGUCAUUAAGCAUUGGGUGGGUAAAUUCAACCACUGUAAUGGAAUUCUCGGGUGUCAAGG | 0.479
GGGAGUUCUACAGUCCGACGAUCAAGUCCUGUGCUACACAUCGUAUGUACCGAAUCGGAAAAAAAGGAAAGGUUUUUGGAAAGUAUUAUGUUACGCCGUUCGGAUCUGCACUUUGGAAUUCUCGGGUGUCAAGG | -1.25
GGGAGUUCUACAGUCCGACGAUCAAGUCCUGUGCUACACAUCGUAUGUACCGAAUCGGCCCCGGCCCCGGGCCCCGGGGAAAGUAUUAUGUUACGCCGUUCGGAUCUGCACUUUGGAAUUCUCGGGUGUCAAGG | -0.396
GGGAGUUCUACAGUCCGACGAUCUCCUGUGCUACACAUCGUAUGUACCGAAUCGGUUUUUUGGGGUUUUUUGGUUUUUUGGGAAAGUAUUAUGUUACGCCGUUCGGAUCUGCAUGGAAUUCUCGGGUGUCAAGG | -0.1
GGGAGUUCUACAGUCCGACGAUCGCAGGAAGUAAAAACAAAUGGAAAUGCUUUGGAUAGUGGCAGGGGUGGGGGUUGCUAAGGAAAGGGUGGGAUGGGAGUGGGUAAAGAGUUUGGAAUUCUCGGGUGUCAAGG | 0.375
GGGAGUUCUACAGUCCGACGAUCUAACUUUAGAGGAAGAUCUGAUGGAUAUGGCAGUGGACGUGGAUUUGGGGAUGGCUAUAAUGGGUAUGGAGGAGGACCUGGAGGUGGCAAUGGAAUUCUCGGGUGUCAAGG | 0.398

Block 4 — technique: universal PBM; molecule type: double-stranded DNA, one strand shown; matrix: in vitro; tested at: not given; direction: higher = stronger binding
Target: Sal-like protein 4, full length isoform B (SALL4, Homo sapiens, UniProt Q9UJQ4-2, residues 1-616)
Notes: 8-mer, flanks averaged, mean of replicates
Strand | E-score
ACGGCTAT | 0.0496
CCCGCATA | 0.126
ATGCTCAC | -0.0779
ATGCGTAA | 0.251
AGTTCCTA | 0.0935
ATGATCCG | -0.08
AGCAGCCA | -0.0244
TCTTACCA | -0.0174
ATACAAAA | 0.36
AACGTCAT | 0.295
CGAGCACC | -0.168
AGCACACA | -0.159
CCGGACAG | -0.311
AATTAGAG | 0.126
ATTGCCCA | 0.0701
TCAAGCGA | 0.00991
AACATTCC | 0.0514

Excerpt of the above (block 2):
Strand | 7-mer Z-score
CCCAUCC | -0.389
AUCUUAG | -0.231
UCGCGUC | -0.354
CUGACCG | -0.162
ACACCGG | 0.0569
